# Measured values of several laboratories.
# Every numbered part comes from another study and shows a few of its results, in no order. Positions count from the first letter of the parent shown.

# Sample 1
# Target: ABI1, truncated, D143A, DHFR fusion (Arabidopsis thaliana)
# Method: DHFR PCA, deep sequencing
# Sample: yeast
# Setting: methotrexate growth selection, single substitutions
# With: (+)-ABA 58 µM
# Reference: wild-type fitted maximum
# Reading: higher = stronger binding
# Parent: PYL1, truncated, DHFR fusion (Arabidopsis thaliana); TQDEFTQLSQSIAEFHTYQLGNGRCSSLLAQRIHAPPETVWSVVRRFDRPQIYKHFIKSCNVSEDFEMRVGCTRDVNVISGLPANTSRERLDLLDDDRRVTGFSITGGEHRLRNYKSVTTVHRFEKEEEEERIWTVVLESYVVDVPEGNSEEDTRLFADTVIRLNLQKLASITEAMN
Variant,relative binding score
P50I,1.78%
S117D,5.74%
F124I,93%
N77K,90.8%
V44E,3.48%
N114L,-0.472%
E128H,96.4%
L20H,99.6%
E109F,45.6%
L138I,66.3%
S63R,85.9%
Q51C,25.4%
I12V,73.3%
R74L,1.53%
N165V,6.08%
N77G,82.8%

# Sample 2
# Target: Phosphate system positive regulatory protein PHO4, full length, GST-tagged (PHO4, Saccharomyces cerevisiae, UniProt P07270, residues 1-312)
# Method: competition protein-binding microarray
# Molecule type: double-stranded DNA, one strand shown
# Sample: in vitro
# Concentration: 2 µM
# Setting: whole 60-bp probe, lowest competitor level
# With: Cbf1 competitor, 0.05 µM
# Reading: higher = stronger binding
# All sequences stand within: … GTCTTGATTCGCTTGACGCTGCTG
# Target sequence (chain): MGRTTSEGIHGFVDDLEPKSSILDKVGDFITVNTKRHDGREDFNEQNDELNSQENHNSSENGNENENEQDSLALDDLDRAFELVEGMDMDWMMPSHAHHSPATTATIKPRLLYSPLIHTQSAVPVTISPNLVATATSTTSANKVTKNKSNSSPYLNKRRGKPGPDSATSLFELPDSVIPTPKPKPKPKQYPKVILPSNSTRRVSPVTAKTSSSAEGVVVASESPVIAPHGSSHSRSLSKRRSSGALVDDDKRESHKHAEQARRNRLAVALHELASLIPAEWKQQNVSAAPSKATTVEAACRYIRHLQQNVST
Sequence,fluorescence intensity [a.u.]
CTTCTGTAAATTTTTCACGTGGAGTGAAGCGCCCCG,13500
TGAAAATTAGACTGTCATGTGATGAGTAATATCGTC,6470
CTAACGAAGGTTTGTCACTGGACTTACAAGCCAAGT,2920
GTCTTGTCTCATTGTCACGCTACTTTCCCCACTTCA,5770
CGGGGTTAAGTTTGTCGTGTGGGTGGCTTGCAGCAG,5730
CGCTCCTTAGTAAAGCACGTGCCGATGATATCAATT,20200
AAATTACTAAGTTGTCACGTGTTTTACCCCGTATGA,14200
GCAAAGGAGGGAAAGCACGGGCAGATAGCACCGTAC,7850
GGATGAGTCAAAAAGCATGTGACAGTGAAATAATCA,10100
CGCTTAACATATTCCCATGTGGTTTATTTTCGTATA,10000
CTTCTGTAAATTTTTCACGTGGCCTGACGCGCCCCG,12100
CGTCCTAGTGATTGGAGTGTGGGTGCCATGAGGAAG,7880
GTCTTGTCTCATTTTCACGTGGCCTTCCCCACTTCA,13400
CTTCTGTAAATTTGGAACGTGGGTGGACGCGCCCCG,14400
GATGCGTTGCATACCCACGTGGAACAAATGGTCAAG,20600
TGTGGGGGTAACCATCACGGCGTCGCACAACCCATA,6100

# Sample 3
# Target: CCNE2, cyclin fold, Cln2 fusion (human)
# Method: yeast growth competition, sequencing
# Sample: yeast
# Setting: weak parent motif
# Reference: not given
# Reading: higher = stronger binding
# Parent: RP1L1 docking peptide (human); TLGLGPLSFTLED
Variant,normalised enrichment score
TLGLGPLSFTAED [L11A],-0.165
TAGLGPLSFTLED [L2A],-0.256
TLGLGPLSATLED [F9A],0.0858
TLGLGALSFTLED [P6A],-0.0733
TLGLGPLSFALED [T10A],0.112
TLGAGPLSFTLED [L4A],-0.299

# Sample 4
# Target: Sal-like protein 4, full length isoform A (SALL4, Homo sapiens, UniProt Q9UJQ4, residues 1-1053)
# UniProt Q9UJQ4, sequence (whole entry, looked up): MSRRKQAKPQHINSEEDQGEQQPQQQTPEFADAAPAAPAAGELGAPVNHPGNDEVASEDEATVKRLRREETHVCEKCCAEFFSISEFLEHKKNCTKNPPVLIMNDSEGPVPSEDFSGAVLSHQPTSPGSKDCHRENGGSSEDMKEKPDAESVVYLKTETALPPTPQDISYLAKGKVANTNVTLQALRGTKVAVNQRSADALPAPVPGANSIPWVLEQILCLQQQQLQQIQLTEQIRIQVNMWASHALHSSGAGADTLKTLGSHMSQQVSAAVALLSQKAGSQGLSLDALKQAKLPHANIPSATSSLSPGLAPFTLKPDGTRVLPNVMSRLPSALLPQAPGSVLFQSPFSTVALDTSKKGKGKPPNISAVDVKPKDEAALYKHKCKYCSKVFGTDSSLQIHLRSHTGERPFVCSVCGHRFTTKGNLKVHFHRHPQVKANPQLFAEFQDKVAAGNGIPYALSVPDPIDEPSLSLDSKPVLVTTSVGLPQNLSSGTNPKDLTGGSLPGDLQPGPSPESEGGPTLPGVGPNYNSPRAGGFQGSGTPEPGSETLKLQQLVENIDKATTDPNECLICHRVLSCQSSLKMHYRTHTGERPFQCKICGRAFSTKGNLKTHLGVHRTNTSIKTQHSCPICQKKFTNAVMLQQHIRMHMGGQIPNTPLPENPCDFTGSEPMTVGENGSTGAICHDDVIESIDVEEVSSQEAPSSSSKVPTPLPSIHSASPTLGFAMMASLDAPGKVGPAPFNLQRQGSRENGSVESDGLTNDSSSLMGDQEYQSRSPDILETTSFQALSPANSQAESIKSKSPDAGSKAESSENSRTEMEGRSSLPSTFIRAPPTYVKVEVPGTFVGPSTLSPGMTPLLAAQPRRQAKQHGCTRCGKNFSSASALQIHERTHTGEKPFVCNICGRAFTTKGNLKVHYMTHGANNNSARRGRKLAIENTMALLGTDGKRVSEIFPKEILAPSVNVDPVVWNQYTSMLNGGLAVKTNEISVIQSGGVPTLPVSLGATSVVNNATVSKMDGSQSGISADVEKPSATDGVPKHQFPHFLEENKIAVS
# Method: universal PBM
# Molecule type: double-stranded DNA, one strand shown
# Sample: in vitro
# Concentration: 600 nM
# Setting: 8-mer, flanks averaged, mean of replicates
# Reading: higher = stronger binding
Sequence,E-score
GGAAACCC,-0.235
GTGCTCTA,-0.204
ACTGGCCG,-0.355
GCCTTAGA,-0.186
GCGCGTGA,-0.164
ATGCCTGC,-0.0904
ATAGACCA,0.0698
GCTACACC,-0.17
CCTAAAGA,-0.00304
CCAGCAAC,-0.173
CCAGGTAA,-0.0126
ACCTTAGG,-0.19
CCAAGACA,0.00799
CACGGTCC,-0.341
GGGACCCC,-0.428
GCCTAGCC,-0.231
GTCAAGGA,-0.167
TTAGCAAA,0.144
TCAAGAAA,0.195
CCCGGTCC,-0.477

# Sample 5
# Target: Interferon regulatory factor 7, full length, phosphomimetic (IRF7, Homo sapiens, UniProt Q92985, residues 1-503, S101K/S471D/S472D/S475D/S476D/S477D/S483D/S484D/S487D)
# UniProt Q92985, sequence (whole entry, unmodified, looked up): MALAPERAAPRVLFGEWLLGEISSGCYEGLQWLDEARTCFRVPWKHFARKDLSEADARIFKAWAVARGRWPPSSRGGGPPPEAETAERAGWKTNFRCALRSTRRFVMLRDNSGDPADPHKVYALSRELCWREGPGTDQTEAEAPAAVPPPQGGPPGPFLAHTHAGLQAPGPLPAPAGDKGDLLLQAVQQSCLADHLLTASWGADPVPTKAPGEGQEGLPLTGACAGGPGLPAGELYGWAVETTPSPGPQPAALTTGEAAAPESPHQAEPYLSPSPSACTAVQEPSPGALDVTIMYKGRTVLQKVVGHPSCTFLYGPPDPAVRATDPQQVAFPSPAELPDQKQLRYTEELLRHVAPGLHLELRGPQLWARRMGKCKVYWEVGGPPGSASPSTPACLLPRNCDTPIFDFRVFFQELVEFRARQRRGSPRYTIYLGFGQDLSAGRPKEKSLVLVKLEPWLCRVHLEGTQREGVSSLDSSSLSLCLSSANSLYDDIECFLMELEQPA
# Method: protein-binding microarray
# Molecule type: double-stranded DNA, one strand shown
# Sample: in vitro
# Concentration: 250 nM
# Setting: 60-bp whole probe
# With: salmon DNA 0.4 mg/ml
# Reference: random background probes
# Reading: higher = stronger binding
# All sequences stand within: GCCTAGCAC … GTCTTGATTCGCTTGACGCTGCTG
Sequence,log fluorescence
GACGTTATCGGTATCGGGACGTGCTAG,0.488 z-score
GACGATTTTAGTTCCGAGACGTGCTAG,0.746 z-score
CTTTAACTCATTCTCTGCTTGTGCTAG,0.699 z-score
ACCCATTGAGATTTCCATTAGTGCTAG,-0.00545 z-score
TAAGATATCGGGTTTCGATTAGTGCTA,7.37 z-score
TCAGAAATTCCTCTGAAACTGTGCTAG,0.23 z-score
TTAGATTTCAGTTCCGATTGGTGCTAG,2.01 z-score
TCAATCTTCACTCTTAATTAGTGCTAG,0.381 z-score
ACCTGTTCCCTCATCAGGCTGTGCTAG,1.25 z-score
TCATTTTTGCTTACGATACTGTGCTAG,0.97 z-score
TCTCTTTTTGCTTTCTTTTAGTGCTAG,2.71 z-score
TTAGGTTACGGTCTCGGTTAGTGCTAG,1.57 z-score
GAATGTCCTCCTCTCTCTTTGTGCTAG,0.144 z-score
TCATGTTTGATCTTGATACTGTGCTAG,0.144 z-score
GAAGATCTCAGTCTCGAGACGTGCTAG,0.3 z-score
TCAATCATCCGTTTCTTACTGTGCTAG,0.532 z-score
AAGGAAATCGGTGATCAGTCTGTGCTA,-0.506 z-score
AACTCTTTGCAGATAAATACGTGCTAG,0.0778 z-score

# Sample 6
# Target: RNA binding protein fox-1 homolog 2, RRM domain, GST-SBP tag (RBFOX2, Homo sapiens, UniProt O43251-10, residues 100-194)
# Method: RNA Bind-n-Seq
# Molecule type: RNA
# Sample: in vitro
# Concentration: 365 nM
# Setting: natural RNA segment, single round, ends assumed
# Reference: no-protein control
# Reading: higher = stronger binding
# All sequences stand within: GGGAGUUCUACAGUCCGACGAUC … UGGAAUUCUCGGGUGCCAA
# Construct (chain): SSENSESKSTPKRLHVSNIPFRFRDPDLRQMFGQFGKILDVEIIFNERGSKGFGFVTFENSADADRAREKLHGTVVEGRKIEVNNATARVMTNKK
Sequence,RBNS enrichment (R)
CCAAAACUUUGACCUGAAUCAUGUGGAUUUGUCCCAAGAUUAUGCUAGAUGCACCAAGCAUGGCCCAAAUUGGUUCUUUUUUAAAUCCCAUGGGGGAAGUGCAGGCUCCU,2.45
GAAUCCAAAGUGGACACCAUUAACAGGUCUUUGAAAUAUGCAUGUACUUUAUAUUUUCUAUAUUUGUAACUUUGCAUGUUCUUGUUUUGUUAUAUAAAAAAAUUGUAAAU,23.2
UCAUGGAAAAUUAACCAGAAAGUAUCAGUUCUUAAAAGUUAUGCCUAGAAAUUAUGUAAAGCUAAACUACUGGUUAGAAAGUAUUCAGUGUAAUAUUGUAUUAAUUUGUU,1.06
CACAAAAUUUAUGUACAGUGCAUAUUAUUGAUCAAUAAACUAAACUUGUUUUCCAAUAAAUUGUUAAAGCCUCUUUUGAGUAUCGCUGAAAGUUGGUUGCUCUGUCCUUU,0.293
UAUGUUGUCCUAACAAGCCAACCCCAACCAACAAUUGUUAAGCUGCUCCUUAAAAAUGAAACAGGAGAAAGCCUGGCAUUGUAUACCUGUUUUUGUUGCUCAGUAAUUCA,0.346
UUCAAAACUAAAAAUCAGCCACAGUUGAAUGCUACAAAAGACAUUUAAAGAUUUUAUUUAAACUGUUAAGAAUCAAGCCGCGAACAAGCCCACUCCUUCAUGAACAAUUC,0.696
UGGGCAUAUCUUGUUGUUCAGUUUGGGUGUCUGCUAAAGAGGAAGUGCACUGGCCCUCUUUGAAAGGGCUUUACAGUGGGGGCACCAAGACCCCAAAGGGCCCAGGCCAG,0.571
AUUCCUUUCCCUUGAUGGGGCUUGUGAUGGACCCAAGGUCUACCUCAGACUUGAGUCUGUUUCCCCUUGAUAGCAUCAUGGUUCUGGCCUUUUCCACAUUCAAUGGAAGC,0.225
AGCAUAAACGCCUUCCGGAAGGACCUGCAGCUCCAGAGACCACCUCCUGAGCACCAAGACCUCUUCUGGUGGUGUGGAACCAGCCAAGAGAUUUCAAGGAAGAGUGAUUA,0.458
UUUCAGAAGGCCUCGCUCCUGACCUAAUUUCUCAAAGCUCCGGUAGUUCUAGACCCCUCCAAUUUCUCAUCUGGUUGCAAGGCUUAUUUUUCUUUUGUACUUUCCUAUAG,0.765
ACGCCAAGCCUGGAUGCCAAGGAGCCCCUGGUGUCACAUGGGGCCUGGCCCACGCCCUCCCUCUCCCAGGCCCGAGAUGUGACCCACCAGUGCCUUCUGUCUGCUCGUUA,0.665
GGGCAGGAGUUGGAAUUAGUUGGUCCCUACUGUCCCCCAUGAGGUUGUGAACCCCUCCCCCCAACUUUUCAUGUUUCUUAAAGGCAUUUUGGUUUUUUAAAAUCUGUACA,0.538

# Excerpt of the above (sample 4):
Sequence,E-score
GGAAACCC,-0.235
TCAAGAAA,0.195
GGGACCCC,-0.428
GTGCTCTA,-0.204
ACTGGCCG,-0.355
GCCTAGCC,-0.231
ATAGACCA,0.0698
GCTACACC,-0.17
CCAAGACA,0.00799
CCTAAAGA,-0.00304
